Published values gathered from unrelated publications.
Parts stem from different laboratories: compare values within a part only.

Series 1
Target: Max-binding protein MNT, bHLH-zipper, MAX partner unstated (MNT, Homo sapiens, UniProt Q99583, residues 220-300)
Method: protein-binding microarray
Molecule type: double-stranded DNA, one strand shown
Matrix: in vitro
Tested at: not given
Notes: k-mer, scored over probes, only values ≥0.25
Reading: higher = stronger binding
Quantity: E-score
Target sequence (chain): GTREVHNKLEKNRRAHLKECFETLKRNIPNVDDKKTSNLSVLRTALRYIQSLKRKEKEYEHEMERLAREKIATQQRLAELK
CCACGACC: 0.252
CACGAGTG: 0.382
ACCGCGTG: 0.483

Series 2
Target: Histone acetyltransferase KAT6A, winged helix 1, GST fusion (KAT6A, Homo sapiens, UniProt Q92794, residues 1-85)
Method: protein binding microarray
Molecule type: double-stranded DNA, one strand shown
Matrix: in vitro
Tested at: not given
Notes: 8-mer, flanks averaged, mean of 2 arrays, mostly near background
Baseline: not given
Reading: higher = stronger binding
Quantity: E-score
Target sequence (chain): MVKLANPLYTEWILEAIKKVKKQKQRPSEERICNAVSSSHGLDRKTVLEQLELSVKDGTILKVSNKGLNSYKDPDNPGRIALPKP
GTAAACAC: 0.117
GCATACAA: -0.0933
ATTGGGAC: -0.261

Series 3
Target: Sal-like protein 4, full length isoform A (SALL4, Homo sapiens, UniProt Q9UJQ4, residues 1-1053)
Chain of UniProt Q9UJQ4 (whole entry, looked up): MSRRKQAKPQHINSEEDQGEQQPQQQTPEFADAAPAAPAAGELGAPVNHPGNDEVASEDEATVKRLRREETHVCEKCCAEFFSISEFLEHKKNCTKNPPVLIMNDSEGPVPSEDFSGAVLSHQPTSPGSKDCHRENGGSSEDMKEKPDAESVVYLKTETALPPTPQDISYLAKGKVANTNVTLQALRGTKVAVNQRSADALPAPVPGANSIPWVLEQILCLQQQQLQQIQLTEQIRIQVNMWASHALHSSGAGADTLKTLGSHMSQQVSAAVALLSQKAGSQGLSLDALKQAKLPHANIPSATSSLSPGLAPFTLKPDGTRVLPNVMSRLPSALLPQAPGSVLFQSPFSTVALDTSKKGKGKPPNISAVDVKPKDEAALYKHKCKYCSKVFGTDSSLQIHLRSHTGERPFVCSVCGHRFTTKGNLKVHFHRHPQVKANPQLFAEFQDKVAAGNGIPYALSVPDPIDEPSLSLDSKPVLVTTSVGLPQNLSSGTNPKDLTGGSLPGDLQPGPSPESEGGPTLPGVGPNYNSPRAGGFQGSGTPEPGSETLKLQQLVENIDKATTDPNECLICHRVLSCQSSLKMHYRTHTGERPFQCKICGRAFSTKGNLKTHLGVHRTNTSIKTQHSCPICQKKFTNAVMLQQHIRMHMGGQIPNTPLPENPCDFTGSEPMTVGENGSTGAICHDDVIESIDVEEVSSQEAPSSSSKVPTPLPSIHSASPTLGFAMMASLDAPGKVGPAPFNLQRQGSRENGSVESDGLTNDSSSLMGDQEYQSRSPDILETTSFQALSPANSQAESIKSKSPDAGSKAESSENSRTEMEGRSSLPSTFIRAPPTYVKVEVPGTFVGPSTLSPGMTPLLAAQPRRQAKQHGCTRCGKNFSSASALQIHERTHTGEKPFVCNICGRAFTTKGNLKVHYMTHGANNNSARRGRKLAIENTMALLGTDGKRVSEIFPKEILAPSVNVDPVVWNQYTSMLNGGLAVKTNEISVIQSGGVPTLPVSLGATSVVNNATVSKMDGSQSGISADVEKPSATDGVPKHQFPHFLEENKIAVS
Method: universal PBM
Molecule type: double-stranded DNA, one strand shown
Matrix: in vitro
Tested at: 600 nM
Notes: 8-mer, flanks averaged, mean of replicates
Reading: higher = stronger binding
Quantity: E-score
GACATAGA: 0.137
ATTGGCAC: 0.0782
CAATAAAG: 0.31
CGCATTTC: 0.0314
ACCTCTAT: 0.0426

Mixed results
PhoQ, residues 284 288 289 292 302 303 AGCYAI — fold induction (PhoP, residues 12 14 15 18 19 QYFSL (Escherichia coli, UniProt P23836); Sort-seq, refers to: YFP reporter; E. coli; PhoQ-PhoP variant library, with: 10 µM Mg2+; baseline: high Mg2+ state, higher = stronger signaling): 6.01

Repeated from above (series 1):
CACGAGTG: 0.382
ACCGCGTG: 0.483
